# Assay results of several laboratories.
# Each line is one published result; not all experiments were run side by side. ± marks the error that the study gave.
# Matrix: plasma
Compound,system,setting,AUC(0-inf) [ng·h/mL]
Cc1ccccc1-c1cc(N2CCNCC2)ncc1N(C)C(=O)C(C)(C)c1cc(C(F)(F)F)cc(C(F)(F)F)c1,healthy volunteers,"oral, dose not given, netupitant-palonosetron, standard dissolution capsule",5160
O=C(O)c1cccc(S(=O)(=O)Nc2ccccc2)c1,patients with normal liver function,"intravenous, 400 mg/m^2 belinostat, single 30 min infusion, cycle 1 day -7, mean",16800
CC(C)[C@H](NC(=O)CNC(=O)[C@H](CCC(N)=O)NC(=O)[C@H](C)N)C(=O)O,"healthy volunteers, LPS endotoxaemia","intravenous, 90 mg/kg/h, 2 h infusion, geometric mean, together with: LPS 2 ng/kg",19700
CC(C)(Sc1ccncc1-c1ccc(C#N)c2ccccc12)C(=O)OC1OC(C(=O)O)C(O)C(O)C1O (centres unmarked),,"oral, 15 mg, mild renal impairment, fasted",266
O=C(O)/C=C/c1cccc(S(=O)(=O)Nc2ccccc2)c1,patients with normal liver function,"intravenous, 400 mg/m^2 belinostat, single 30 min infusion, cycle 1 day -7, mean",6020
COc1cc(C)c(Cc2ccc(O)cc2)cc1[C@@H]1S[C@H](CO)[C@@H](O)[C@H](O)[C@H]1O,Japanese T2DM patients,"0.5 mg luseogliflozin, day 1, once daily",28.6 ± 6.17
CN1CCN(c2cc(-c3ccccc3CO)c(N(C)C(=O)C(C)(C)c3cc(C(F)(F)F)cc(C(F)(F)F)c3)cn2)CC1,cancer patients,"oral, dose not given, netupitant-palonosetron single dose, range of means",5290 to 5950
CC(C)(Sc1cc[n+]([O-])cc1-c1ccc(C#N)c2ccccc12)C(=O)OC1OC(C(=O)O)C(O)C(O)C1O (centres unmarked),,"oral, 15 mg, severe renal impairment, fasted",1570

# Excerpt of the above:
Compound,system,setting,AUC(0-inf) [ng·h/mL]
CC(C)(Sc1cc[n+]([O-])cc1-c1ccc(C#N)c2ccccc12)C(=O)OC1OC(C(=O)O)C(O)C(O)C1O (centres unmarked),,"oral, 15 mg, severe renal impairment, fasted",1570
